Measurements gathered from unrelated publications.
Parts stem from different laboratories: compare values within a part only. Changes are numbered by the printed parent chain.

Set 1 — method: universal PBM; form: double-stranded DNA, one strand shown; matrix: in vitro; concentration: 600 nM; reading: higher = stronger binding
Target: Sal-like protein 4, full length isoform A (SALL4, Homo sapiens, UniProt Q9UJQ4, residues 1-1053)
Chain of UniProt Q9UJQ4 (whole entry, looked up): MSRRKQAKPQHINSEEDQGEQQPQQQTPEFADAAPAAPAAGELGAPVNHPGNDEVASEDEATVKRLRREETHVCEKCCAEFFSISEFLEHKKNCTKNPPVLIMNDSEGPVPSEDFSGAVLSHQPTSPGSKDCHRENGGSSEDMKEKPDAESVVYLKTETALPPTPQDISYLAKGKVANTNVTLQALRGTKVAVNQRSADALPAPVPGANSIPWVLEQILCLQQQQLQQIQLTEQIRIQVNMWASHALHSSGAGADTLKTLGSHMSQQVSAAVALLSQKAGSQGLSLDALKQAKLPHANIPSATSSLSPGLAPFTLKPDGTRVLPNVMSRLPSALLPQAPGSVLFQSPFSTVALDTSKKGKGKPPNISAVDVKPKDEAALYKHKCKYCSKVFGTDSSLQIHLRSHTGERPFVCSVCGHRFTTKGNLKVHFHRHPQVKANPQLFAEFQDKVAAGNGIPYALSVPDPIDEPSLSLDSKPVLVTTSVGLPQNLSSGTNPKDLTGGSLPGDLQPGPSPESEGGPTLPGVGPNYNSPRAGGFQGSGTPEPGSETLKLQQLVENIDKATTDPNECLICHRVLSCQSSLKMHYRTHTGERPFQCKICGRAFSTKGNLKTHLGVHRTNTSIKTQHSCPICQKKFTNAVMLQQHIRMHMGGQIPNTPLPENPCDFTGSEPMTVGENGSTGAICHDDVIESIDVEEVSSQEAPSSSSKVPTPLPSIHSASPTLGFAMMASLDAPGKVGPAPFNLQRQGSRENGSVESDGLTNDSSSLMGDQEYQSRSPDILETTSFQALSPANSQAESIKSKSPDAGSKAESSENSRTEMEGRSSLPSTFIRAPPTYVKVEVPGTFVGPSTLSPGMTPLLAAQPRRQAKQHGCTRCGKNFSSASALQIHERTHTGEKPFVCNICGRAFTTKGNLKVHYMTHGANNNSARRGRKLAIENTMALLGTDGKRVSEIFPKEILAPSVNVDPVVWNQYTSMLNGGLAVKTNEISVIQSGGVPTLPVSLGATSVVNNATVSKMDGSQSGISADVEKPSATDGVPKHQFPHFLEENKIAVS
Notes: 8-mer, flanks averaged, mean of replicates
Sequence	E-score
GATGGTTA	0.0983
CCCGTCAG	-0.324
CAGTCCCC	-0.336
ACCATAGC	-0.115
GCTAAAGA	0.0691
CTTACAAC	0.152
GCTTGCGA	0.0608
ATTACCAC	0.157

Set 2 — target: CCND2, cyclin fold, Cln2 fusion (human); method: yeast growth competition, sequencing; matrix: yeast; notes: strong parent motif; relative to: not given; reading: higher = stronger binding
Parent: INSM1 docking peptide (human); PKAIRKLHFEDEV; partner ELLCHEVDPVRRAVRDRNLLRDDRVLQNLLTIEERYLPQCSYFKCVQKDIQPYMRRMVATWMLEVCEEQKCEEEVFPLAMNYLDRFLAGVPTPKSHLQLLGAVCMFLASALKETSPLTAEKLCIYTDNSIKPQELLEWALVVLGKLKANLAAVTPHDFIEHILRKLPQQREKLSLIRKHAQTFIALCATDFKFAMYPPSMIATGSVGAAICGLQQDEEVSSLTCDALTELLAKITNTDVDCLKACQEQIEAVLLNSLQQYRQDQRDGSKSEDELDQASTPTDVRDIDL
Variant	normalised enrichment score
A3I	0.349
K2G	2.99
D11I	1.79
D11V	1.67
H8K	2.55
K2C	2.65
D11W	1.38
R5N	0.0177
E10T	1.76
E10V	1.26
R5A	0.326
E12G	1.74
E10M	1.42

Set 3 — method: protein-binding microarray; form: double-stranded DNA, one strand shown; matrix: in vitro; concentration: 0.8 µM; notes: whole 60-bp probe, no competitor; reading: higher = stronger binding; shared flanks, not repeated: … GTCTTGATTCGCTTGACGCTGCTG
Target: Centromere-binding protein 1, full length, N-terminal tag (CBF1, Saccharomyces cerevisiae, UniProt P17106, residues 1-351)
Chain of UniProt P17106 (whole entry, looked up): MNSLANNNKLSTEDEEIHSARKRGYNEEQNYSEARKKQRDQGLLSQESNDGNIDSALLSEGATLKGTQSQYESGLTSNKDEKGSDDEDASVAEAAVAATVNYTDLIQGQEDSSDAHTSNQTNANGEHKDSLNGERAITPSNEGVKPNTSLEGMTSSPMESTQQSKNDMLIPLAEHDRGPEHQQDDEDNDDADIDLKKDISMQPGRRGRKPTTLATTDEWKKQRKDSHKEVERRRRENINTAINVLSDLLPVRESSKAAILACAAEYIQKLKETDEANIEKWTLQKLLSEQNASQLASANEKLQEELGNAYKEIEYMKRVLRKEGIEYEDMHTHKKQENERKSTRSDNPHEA
Sequence	fluorescence intensity [a.u.]
CTAACCAAAAAATTGCACGAGAAAGAATGTCTTTTC	570
CTAAAGTATATAAGCAGCGTGATTGTCCGATCGTTC	630
TGTACGAAGCTATAGCACGTTCCTATAGTAGTTAGG	720
CTATGTAAAAACACCCACGAGTGCATACCACTTTTC	572
TGTACGAAGCTATAATTCACCACTATAGTAGTTAGG	521
CTAAAATTCCACCATCACCTATCAACTAATGGTTTC	508
GAATCACCGTTGGACATCAGGATTTCCCACGATTAG	503
TGTACGAAGCTATATGGGGTGACTATAGTAGTTAGG	539

Single results of other studies
Substance	target	test	test system	setting	how to read	quantity	value
PhoQ, residues 284 288 289 292 302 303 TNASYF	PhoP, residues 12 14 15 18 19 GHCSL (Escherichia coli, UniProt P23836)	Sort-seq, measured: YFP reporter	E. coli	PhoQ-PhoP variant library, together with: 10 µM Mg2+	relative to: high Mg2+ state, higher = stronger signaling	fold induction	13.7

Repeated from above (set 3):
Sequence	fluorescence intensity [a.u.]
TGTACGAAGCTATAGCACGTTCCTATAGTAGTTAGG	720
CTATGTAAAAACACCCACGAGTGCATACCACTTTTC	572
